Measurements gathered from unrelated publications.
Each numbered part is a random draw from the data of one study; scales do not carry over between parts.
Chain of UniProt P11309 (whole entry, looked up): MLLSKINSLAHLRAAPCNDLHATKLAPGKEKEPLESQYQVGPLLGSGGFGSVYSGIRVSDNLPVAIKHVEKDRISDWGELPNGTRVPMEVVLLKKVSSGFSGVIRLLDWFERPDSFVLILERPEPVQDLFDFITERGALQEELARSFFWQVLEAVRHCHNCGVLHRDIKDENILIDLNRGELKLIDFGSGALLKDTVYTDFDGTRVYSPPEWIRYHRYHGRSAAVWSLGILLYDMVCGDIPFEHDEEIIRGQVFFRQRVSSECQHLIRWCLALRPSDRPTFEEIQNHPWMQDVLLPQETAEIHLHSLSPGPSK
Chain of UniProt P25098 (whole entry, looked up): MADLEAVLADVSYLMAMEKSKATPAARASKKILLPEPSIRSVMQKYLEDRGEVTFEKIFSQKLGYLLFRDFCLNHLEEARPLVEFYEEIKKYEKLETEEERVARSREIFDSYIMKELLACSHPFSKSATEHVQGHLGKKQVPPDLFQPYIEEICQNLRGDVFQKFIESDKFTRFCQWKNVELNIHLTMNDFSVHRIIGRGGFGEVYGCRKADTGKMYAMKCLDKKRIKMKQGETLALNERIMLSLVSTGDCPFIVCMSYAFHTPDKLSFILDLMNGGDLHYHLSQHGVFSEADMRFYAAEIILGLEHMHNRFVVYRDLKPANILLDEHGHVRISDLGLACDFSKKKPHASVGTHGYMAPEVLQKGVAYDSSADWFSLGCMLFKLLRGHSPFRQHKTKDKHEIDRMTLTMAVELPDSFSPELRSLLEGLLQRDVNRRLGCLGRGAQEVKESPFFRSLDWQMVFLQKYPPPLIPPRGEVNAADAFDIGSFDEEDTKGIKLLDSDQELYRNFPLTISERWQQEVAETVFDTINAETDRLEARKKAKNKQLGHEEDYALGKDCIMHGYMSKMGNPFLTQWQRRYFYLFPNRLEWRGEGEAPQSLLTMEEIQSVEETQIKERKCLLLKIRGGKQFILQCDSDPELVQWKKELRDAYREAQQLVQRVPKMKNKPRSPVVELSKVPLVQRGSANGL
Chain of UniProt Q15743 (whole entry, looked up): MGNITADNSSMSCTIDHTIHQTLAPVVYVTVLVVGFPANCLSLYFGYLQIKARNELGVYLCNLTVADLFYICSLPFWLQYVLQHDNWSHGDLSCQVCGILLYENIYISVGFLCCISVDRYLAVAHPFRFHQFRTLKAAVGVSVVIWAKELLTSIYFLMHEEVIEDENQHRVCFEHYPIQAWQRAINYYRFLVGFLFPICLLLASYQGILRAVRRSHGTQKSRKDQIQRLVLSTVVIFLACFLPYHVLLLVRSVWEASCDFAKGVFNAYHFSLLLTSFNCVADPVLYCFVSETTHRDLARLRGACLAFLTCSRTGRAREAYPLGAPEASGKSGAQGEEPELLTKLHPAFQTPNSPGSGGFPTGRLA
Chain of UniProt Q8N6U8 (whole entry, looked up): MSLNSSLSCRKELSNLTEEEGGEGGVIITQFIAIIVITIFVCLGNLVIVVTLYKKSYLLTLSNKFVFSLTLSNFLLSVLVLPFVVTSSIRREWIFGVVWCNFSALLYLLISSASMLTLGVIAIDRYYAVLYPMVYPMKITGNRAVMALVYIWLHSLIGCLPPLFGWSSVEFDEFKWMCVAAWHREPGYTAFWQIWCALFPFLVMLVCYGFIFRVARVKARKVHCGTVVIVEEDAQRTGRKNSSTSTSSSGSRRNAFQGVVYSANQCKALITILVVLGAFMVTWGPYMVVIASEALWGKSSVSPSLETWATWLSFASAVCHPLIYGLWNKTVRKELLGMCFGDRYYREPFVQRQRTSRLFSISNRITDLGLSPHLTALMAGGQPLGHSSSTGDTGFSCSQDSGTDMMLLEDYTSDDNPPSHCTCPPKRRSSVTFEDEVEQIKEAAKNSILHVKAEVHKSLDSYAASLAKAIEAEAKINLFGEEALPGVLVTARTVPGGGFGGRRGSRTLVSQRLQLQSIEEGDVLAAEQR
Chain of UniProt P35916 (whole entry, looked up): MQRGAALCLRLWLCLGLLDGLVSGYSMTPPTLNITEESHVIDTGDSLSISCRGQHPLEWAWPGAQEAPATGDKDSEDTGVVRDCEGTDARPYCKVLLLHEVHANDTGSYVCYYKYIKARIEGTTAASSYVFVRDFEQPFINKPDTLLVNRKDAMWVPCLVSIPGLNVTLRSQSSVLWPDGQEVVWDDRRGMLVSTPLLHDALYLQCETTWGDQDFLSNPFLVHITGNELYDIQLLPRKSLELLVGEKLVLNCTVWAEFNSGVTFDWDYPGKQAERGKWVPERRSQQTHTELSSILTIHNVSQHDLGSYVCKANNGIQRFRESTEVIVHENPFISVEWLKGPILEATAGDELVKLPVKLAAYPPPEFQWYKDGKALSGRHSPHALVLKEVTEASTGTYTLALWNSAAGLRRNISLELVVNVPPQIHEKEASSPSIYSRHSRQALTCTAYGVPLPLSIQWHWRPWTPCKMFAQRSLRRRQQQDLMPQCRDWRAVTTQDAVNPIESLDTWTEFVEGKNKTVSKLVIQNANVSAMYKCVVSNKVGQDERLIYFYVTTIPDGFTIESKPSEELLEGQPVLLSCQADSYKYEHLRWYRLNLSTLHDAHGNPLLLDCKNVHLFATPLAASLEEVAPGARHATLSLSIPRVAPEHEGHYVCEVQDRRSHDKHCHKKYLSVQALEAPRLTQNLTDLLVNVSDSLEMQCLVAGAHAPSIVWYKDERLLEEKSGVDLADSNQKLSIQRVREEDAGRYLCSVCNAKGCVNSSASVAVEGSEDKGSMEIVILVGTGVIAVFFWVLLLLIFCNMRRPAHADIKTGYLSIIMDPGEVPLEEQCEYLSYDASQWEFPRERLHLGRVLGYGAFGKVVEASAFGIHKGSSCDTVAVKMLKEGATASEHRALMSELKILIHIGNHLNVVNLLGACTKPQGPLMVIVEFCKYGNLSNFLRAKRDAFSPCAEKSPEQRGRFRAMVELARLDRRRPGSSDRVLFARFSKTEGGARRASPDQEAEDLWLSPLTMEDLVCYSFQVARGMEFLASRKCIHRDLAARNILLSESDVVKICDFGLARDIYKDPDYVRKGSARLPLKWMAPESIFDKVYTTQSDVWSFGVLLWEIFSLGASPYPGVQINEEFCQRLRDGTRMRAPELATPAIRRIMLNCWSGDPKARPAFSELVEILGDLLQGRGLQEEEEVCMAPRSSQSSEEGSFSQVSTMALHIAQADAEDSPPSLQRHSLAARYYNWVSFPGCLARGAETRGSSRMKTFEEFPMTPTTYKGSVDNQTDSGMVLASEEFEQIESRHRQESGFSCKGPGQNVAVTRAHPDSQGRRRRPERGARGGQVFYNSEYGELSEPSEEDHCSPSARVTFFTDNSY
Chain of UniProt Q96LB2 (whole entry, looked up): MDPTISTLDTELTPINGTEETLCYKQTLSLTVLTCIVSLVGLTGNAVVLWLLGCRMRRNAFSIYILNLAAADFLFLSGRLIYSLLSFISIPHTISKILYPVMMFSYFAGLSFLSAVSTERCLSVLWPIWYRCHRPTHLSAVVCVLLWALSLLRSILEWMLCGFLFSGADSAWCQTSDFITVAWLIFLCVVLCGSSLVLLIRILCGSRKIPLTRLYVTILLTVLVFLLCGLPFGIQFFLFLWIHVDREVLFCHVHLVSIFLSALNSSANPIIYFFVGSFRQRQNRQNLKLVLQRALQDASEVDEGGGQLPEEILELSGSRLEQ
Chain of UniProt Q9BZJ6 (whole entry, looked up): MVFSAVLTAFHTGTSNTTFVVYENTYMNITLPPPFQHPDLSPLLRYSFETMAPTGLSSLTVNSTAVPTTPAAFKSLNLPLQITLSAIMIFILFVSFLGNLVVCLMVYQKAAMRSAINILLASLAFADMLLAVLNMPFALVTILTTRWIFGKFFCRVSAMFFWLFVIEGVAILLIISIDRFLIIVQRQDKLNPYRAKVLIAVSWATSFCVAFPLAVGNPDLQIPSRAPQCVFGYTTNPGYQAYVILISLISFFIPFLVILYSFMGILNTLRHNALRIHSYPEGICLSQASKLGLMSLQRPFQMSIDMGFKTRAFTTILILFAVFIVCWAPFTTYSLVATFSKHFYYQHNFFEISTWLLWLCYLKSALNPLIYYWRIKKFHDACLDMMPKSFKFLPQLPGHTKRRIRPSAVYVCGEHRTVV
Chain of UniProt Q9HCP0 (whole entry, looked up): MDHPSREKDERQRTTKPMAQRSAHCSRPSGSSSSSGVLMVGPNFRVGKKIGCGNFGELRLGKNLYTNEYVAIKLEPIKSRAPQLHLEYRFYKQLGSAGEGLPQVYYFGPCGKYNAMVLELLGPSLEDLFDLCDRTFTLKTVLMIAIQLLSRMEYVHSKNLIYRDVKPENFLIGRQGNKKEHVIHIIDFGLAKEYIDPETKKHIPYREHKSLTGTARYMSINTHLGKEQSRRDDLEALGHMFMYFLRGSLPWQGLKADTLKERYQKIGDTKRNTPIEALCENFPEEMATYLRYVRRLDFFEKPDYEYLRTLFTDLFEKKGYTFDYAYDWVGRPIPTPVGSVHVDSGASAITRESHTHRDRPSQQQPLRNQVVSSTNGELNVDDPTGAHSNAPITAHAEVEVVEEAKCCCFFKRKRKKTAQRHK

Sample 1 — observed: enzyme activity; mode: inhibitor; concentration: 10 µM; endpoint: inhibition
Target: Calcium/calmodulin-dependent protein kinase type II subunit alpha (CAMK2A, Homo sapiens, UniProt Q9UQM7)
Chain of UniProt Q9UQM7 (whole entry, looked up): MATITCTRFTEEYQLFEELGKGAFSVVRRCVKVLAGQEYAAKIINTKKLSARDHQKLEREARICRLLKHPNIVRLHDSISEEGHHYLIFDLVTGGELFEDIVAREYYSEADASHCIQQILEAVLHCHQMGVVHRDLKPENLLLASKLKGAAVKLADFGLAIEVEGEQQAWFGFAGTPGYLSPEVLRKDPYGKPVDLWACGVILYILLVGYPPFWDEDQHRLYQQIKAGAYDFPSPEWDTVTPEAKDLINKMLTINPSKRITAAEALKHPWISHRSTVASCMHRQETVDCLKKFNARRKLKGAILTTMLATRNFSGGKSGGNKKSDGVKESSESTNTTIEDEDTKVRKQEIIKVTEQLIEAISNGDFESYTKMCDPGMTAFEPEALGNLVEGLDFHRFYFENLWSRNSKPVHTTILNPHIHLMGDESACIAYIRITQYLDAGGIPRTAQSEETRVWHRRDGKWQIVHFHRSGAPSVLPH
SMILES = Nc1nc(O)c2c(n1)NC[C@H](CNc1ccc(C(=O)N[C@@H](CCC(=O)O)C(=O)O)cc1)N2C=O; result = 0%
SMILES = CC(C)=CCc1c(O)cc(O)c2c(=O)c(-c3ccc(O)cc3)coc12; result = -3%
SMILES = COc1cc(C)c2c(=O)cc(C[C@@H](C)O)oc2c1[C@@H]1O[C@H](CO)[C@@H](O)[C@H](O)[C@H]1OC(=O)/C=C/c1ccc(O)cc1; result = -18%
SMILES = CCCCCCCCCCCC(C)=O; result = -19%
SMILES = O=C(O)c1cn(-c2ccc(F)cc2)c2cc(N3CCNCC3)c(F)cc2c1=O; result = -17%
SMILES = O=C(O)c1cc(O)ccc1O; result = 31%
SMILES = O=C1c2cc(CO)cc(O)c2C(=O)c2c(O[C@@H]3O[C@H](CO)[C@@H](O)[C@H](O)[C@H]3O)cccc21; result = 7%
SMILES = COC(=O)OCOc1c2n(ccc1=O)N([C@@H]1c3ccccc3SCc3c1ccc(F)c3F)[C@@H]1COCCN1C2=O; result = 0%
SMILES = CC(C)=CCC/C(C)=C/CC/C(C)=C/CCC(=O)OC/C=C(\C)CCC=C(C)C; result = -5%
SMILES = C[C@H]1O[C@@H](O[C@H]2CC[C@@]3(C)[C@@H](CC[C@]4(C)[C@@H]3C=CC3=C5CC(C)(C)CC[C@]5(CO)[C@H](O)C[C@]34C)[C@]2(C)CO)[C@H](O)[C@@H](O[C@@H]2O[C@H](CO)[C@@H](O)[C@H](O)[C@H]2O)[C@H]1O; result = -23%

Sample 2 — Structure (SMILES): CC(C)CN(C)c1nc(N)c(C(=O)N=C(N)N)nc1Cl; observed: β-arrestin recruitment; mode: agonist; method: PRESTO-Tango; concentration: 10 µM; baseline: untreated; endpoint: fold over basal
target = CXCR6 (Homo sapiens, UniProt O00574); result = 0.7
target = G-protein coupled receptor 161 (GPR161, Homo sapiens, UniProt Q8N6U8); result = 0.96
target = NMUR1 (Homo sapiens, UniProt Q9HB89); result = 0.93
target = Probable G-protein coupled receptor 63 (GPR63, Homo sapiens, UniProt Q9BZJ6); result = 0.76
target = LHCGR (Homo sapiens, UniProt P22888); result = 0.44 fold
target = GPR68 (Homo sapiens, UniProt Q15743); result = 0.61
target = P2Y purinoceptor 12 (P2RY12, Homo sapiens, UniProt Q9H244); result = 0.76
target = MRGPRX1 (Homo sapiens, UniProt Q96LB2); result = 1.11
target = ADORA2A (Homo sapiens, UniProt P29274); result = 0.71

Sample 3 — observed: cell-free assay; method: competition with immobilised ligand; concentration: 1 µM; endpoint: remaining binding
Compound: C[C@@]1(Cc2ccc(C#N)cc2)C(=O)N(c2cc(Cl)cc(Cl)c2)c2ncc(C(=O)NC3(c4nc(C5CCC5)no4)CC3)n21
target = CDK7 (Homo sapiens, UniProt P50613); result = 100%
target = GRK2 (Homo sapiens, UniProt P25098); result = 100%
target = DAPK2 (Homo sapiens, UniProt Q9UIK4); result = 84%
target = TEK (Homo sapiens, UniProt Q02763); result = 92%
target = PIK3CB (Homo sapiens, UniProt P42338); result = 97%
target = Tyrosine-protein kinase JAK1, JH2 (JAK1, Homo sapiens, UniProt P23458); result = 100%
target = CSNK1G1 (Homo sapiens, UniProt Q9HCP0); result = 92%
target = FES (Homo sapiens, UniProt P07332); result = 100%
target = PIP5K1A (Homo sapiens, UniProt Q99755); result = 100%
target = PIM1 (Homo sapiens, UniProt P11309); result = 100%
target = CSNK1G2 (Homo sapiens, UniProt P78368); result = 91%
target = BRAF (Homo sapiens, UniProt P15056); result = 100%
target = FLT4 (Homo sapiens, UniProt P35916); result = 100%
target = PTK2B (Homo sapiens, UniProt Q14289); result = 100%

Further values, each from its own experiment — cell line: A-375; concentration: 100 µM; time: 60 h
SMILES = CCOC(=O)[C@H](CCc1ccccc1)N[C@@H](C)C(=O)N1Cc2ccccc2C[C@H]1C(=O)O; viability = 94.3%
SMILES = COCCOC(=O)C1=C(C)NC(C)=C(C(=O)OC/C=C/c2ccccc2)C1c1cccc([N+](=O)[O-])c1 (centres unmarked); viability = 12.7%

For quick reference, copied from above (sample 1):
SMILES = CCCCCCCCCCCC(C)=O; result = -19%
SMILES = Nc1nc(O)c2c(n1)NC[C@H](CNc1ccc(C(=O)N[C@@H](CCC(=O)O)C(=O)O)cc1)N2C=O; result = 0%
SMILES = COC(=O)OCOc1c2n(ccc1=O)N([C@@H]1c3ccccc3SCc3c1ccc(F)c3F)[C@@H]1COCCN1C2=O; result = 0%
SMILES = CC(C)=CCC/C(C)=C/CC/C(C)=C/CCC(=O)OC/C=C(\C)CCC=C(C)C; result = -5%
